Experimental data from different studies.
Compare with care: the assays were run in different laboratories. Several values in a cell are separate wells, animals, samples, runs or records. ± gives the spread as reported.

Cc1cc(NS(=O)(=O)c2ccc(NC(=O)/C(C#N)=C/c3ccc(N4CCCCC4)cc3)cc2)no1  early apoptotic cells (HCT-116; annexin V/7-AAD flow cytometry; IC50, 48 h): 41.2%
CC(C)NCC(O)c1ccc(O)c(O)c1 (centres unmarked)  sarcomere length (mouse ventricular cardiomyocytes; dose not given, 0.144 s): 1.59 µm
Nc1nc2ccn(CCCc3ccc(C(=O)N[C@@H](CCC(=O)O)C(=O)O)cc3)c2c(=O)[nH]1  IC50 ratio (HCT-116 Tet-On SHMT2 Y105F vs WT; cell proliferation; 8 days, together with: doxycycline; reference: WT over Y105F): 14 fold
CCOc1cc(-c2nncn2C)ccc1Nc1ncc2cc(C)nc(N3CC4(CCOCC4)C3)c2n1  GI50 (CAL-51; cell growth; 72 h): 130 nM
CCCCC(CC)CNC(=N)NC(=N)NCCCCCCNC(=N)NC(=N)NCC(CC)CCCC.Cl.Cl (centres unmarked)  inhibition (BT-16; cell viability, MTT; 10 µM, 72 h): 94.4%
C=CCn1c(=O)c2cnc(Nc3ccc(N4CCN(C)CC4)cc3)nc2n1-c1ccc2c(n1)[C@@](O)(CC)CC2  G2/M cells in subpopulation (MDA-MB-231; flow cytometry, refers to: pHH3+γH2Ax+; concentration not given): 19.7%
O=C(/C=C/c1cccc(S(=O)(=O)Nc2ccccc2)c1)NO  inhibition (BT-16; cell viability, MTT; 10 µM, 72 h): 88.9%
CC/C(=N\NC(=O)NCc1cccc(O)c1)c1ccc(O)c(C)c1O  TAZ protein level (SK-OV-3; Western blot; 2D culture; 20 µM, 1 h, unit not given; reference: β-actin): 1.49 ± 0.64
COc1cc([C@@H]2c3cc4c(cc3[C@@H](O[C@@H]3O[C@@H]5CO[C@@H](C)O[C@H]5[C@H](O)[C@H]3O)[C@H]3COC(=O)[C@H]23)OCO4)cc(OC)c1O  G1 phase cells (HepG2 spheroids; flow cytometry; 1.7 µM, 24 h): 36.5 ± 17.6%
COc1cccc2c1C(=O)c1c(O)c3c(c(O)c1C2=O)C[C@@](O)(C(=O)CO)C[C@@H]3O[C@H]1C[C@H](N)[C@H](O)[C@H](C)O1  Emax (NCI-H1299; cytotoxicity, WST-1; 72 h, highest tested concentration): 97.8%
Cn1cc(-n2cnc3c(NCc4nc5cc(Cl)c(Cl)cc5[nH]4)nc(N4CCOCC4)nc32)cn1  luminescence signal (MDA-MB-231; cell viability, CellCounting-Lite; 74.07 nM, 37 °C; higher = more viable cells): 106000 a.u. and 113000 a.u. and 95500 a.u.
O=C(/C=C/c1ccc(CN(CCO)CCc2c[nH]c3ccccc23)cc1)NO  inhibition (BT-16; cell viability, MTT; 10 µM, 72 h): 95.1%
CCn1cc(-c2cc(Cn3ccnc3)cc3c2CCN([C@H](c2cc(OC)ccn2)C2CC2)C3=O)c(C(F)(F)F)n1  EC50 (PA-1; cell growth, inhibitor; 120 h): 68.6 nM
CC1(C)CC[C@]2(C(=O)O)CC[C@]3(C)C(=CC[C@@H]4[C@@]5(C)CC[C@H](O)C(C)(C)[C@@H]5CC[C@]43C)[C@@H]2C1  Aβ40 and Aβ42 levels (N2a stably expressing human APP695; ELISA; concentration not given; increase): 15 to 25%
Nc1cccc2c1C(=O)N(C1CCC(=O)NC1=O)C2=O (centres unmarked)  viability (MM1.S; XTT; 0.8 µM): 38% and 29% and 33%
CN(C)c1ccc2cc(C(=O)NS(=O)(=O)c3ccccc3-c3ccccc3)oc2c1  persistence of H3K23ac decline (ZR-75-1; Western blot; 1 µM): ≤ 48 h
CCCCCCCCCCCCCCCC[N+](C)(C)C  inhibition (BT-16; cell viability, MTT; 10 µM, 72 h): 82%
C=Cc1c2[n-]c(c1C)/C=c1\[n-]/c(c(C)c1C=C)=C\c1[n-]c(c(CCC(=O)O)c1C)/C=c1\[n-]c(c(C)c1CCC(=O)O)=C2.[Sn+4]  fold change (SH-SY5Y; RNA-seq, refers to: AOPEP mRNA; 5 µM, 5 h; reference: untreated cells): 2.04
CCn1cc(-c2cc(Cn3ccoc3=N)cc3c2CCN([C@@H](C)c2cc(OC)ccn2)C3=O)c(C(F)(F)F)n1  EC50 (COLO-320-HSR; cell growth, inhibitor; 120 h): 132 nM
Cn1cc(-c2ccc(-c3cncc(Cl)c3N3CCC4(CCNC4=O)CC3)cc2)cn1  log2 fold change (COLO 205; gene expression, microarray, refers to: SPEF1 mRNA; concentration not given, 2 h; reference: untreated cells): 1.12
